Measurements pooled from the literature.
Parts stem from different laboratories: compare values within a part only. Several values in a cell are separate wells, animals, samples, runs or records.
UniProt P10721, sequence (whole entry, unmodified, looked up): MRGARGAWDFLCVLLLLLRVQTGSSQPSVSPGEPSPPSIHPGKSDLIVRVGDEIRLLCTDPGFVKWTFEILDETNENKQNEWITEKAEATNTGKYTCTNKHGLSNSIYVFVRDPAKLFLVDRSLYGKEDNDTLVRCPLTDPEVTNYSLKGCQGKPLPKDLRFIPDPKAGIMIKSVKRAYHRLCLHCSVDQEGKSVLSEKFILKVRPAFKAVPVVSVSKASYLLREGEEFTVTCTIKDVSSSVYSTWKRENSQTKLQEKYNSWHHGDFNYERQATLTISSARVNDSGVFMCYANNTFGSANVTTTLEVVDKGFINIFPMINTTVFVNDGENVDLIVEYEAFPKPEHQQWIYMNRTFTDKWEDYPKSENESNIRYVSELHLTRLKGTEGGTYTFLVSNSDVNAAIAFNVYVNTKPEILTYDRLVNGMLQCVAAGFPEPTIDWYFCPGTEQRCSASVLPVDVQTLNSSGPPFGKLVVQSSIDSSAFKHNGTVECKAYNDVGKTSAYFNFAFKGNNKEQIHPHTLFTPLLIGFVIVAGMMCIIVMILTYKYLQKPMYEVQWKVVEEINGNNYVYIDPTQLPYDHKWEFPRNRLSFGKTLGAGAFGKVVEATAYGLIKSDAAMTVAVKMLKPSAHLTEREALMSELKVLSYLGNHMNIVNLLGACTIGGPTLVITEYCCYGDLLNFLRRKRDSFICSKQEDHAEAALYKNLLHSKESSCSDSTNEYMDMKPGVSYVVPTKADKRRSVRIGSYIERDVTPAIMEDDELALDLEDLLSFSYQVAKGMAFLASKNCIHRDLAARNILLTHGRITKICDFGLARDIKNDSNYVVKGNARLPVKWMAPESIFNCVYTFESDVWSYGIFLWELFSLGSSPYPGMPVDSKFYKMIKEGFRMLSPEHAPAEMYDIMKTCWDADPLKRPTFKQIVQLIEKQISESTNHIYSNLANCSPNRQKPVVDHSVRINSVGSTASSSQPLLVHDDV
UniProt Q05655, sequence (whole entry, looked up): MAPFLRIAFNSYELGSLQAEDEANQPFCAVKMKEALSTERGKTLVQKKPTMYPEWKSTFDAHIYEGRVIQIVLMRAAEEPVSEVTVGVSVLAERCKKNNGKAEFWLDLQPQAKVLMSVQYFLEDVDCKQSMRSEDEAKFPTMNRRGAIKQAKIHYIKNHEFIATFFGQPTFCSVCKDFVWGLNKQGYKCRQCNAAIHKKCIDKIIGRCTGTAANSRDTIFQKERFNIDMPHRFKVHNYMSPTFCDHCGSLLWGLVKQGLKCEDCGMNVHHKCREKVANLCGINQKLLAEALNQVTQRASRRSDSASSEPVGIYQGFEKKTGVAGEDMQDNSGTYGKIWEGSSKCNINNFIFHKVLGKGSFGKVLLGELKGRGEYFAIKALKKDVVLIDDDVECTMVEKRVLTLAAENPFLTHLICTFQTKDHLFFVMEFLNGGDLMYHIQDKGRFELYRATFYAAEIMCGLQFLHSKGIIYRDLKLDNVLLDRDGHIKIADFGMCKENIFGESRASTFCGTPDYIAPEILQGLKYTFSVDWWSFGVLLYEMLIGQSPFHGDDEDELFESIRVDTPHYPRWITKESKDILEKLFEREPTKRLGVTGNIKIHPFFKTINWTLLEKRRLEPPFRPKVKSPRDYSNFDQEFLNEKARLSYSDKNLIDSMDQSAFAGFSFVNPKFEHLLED
UniProt O00329, sequence (whole entry, looked up): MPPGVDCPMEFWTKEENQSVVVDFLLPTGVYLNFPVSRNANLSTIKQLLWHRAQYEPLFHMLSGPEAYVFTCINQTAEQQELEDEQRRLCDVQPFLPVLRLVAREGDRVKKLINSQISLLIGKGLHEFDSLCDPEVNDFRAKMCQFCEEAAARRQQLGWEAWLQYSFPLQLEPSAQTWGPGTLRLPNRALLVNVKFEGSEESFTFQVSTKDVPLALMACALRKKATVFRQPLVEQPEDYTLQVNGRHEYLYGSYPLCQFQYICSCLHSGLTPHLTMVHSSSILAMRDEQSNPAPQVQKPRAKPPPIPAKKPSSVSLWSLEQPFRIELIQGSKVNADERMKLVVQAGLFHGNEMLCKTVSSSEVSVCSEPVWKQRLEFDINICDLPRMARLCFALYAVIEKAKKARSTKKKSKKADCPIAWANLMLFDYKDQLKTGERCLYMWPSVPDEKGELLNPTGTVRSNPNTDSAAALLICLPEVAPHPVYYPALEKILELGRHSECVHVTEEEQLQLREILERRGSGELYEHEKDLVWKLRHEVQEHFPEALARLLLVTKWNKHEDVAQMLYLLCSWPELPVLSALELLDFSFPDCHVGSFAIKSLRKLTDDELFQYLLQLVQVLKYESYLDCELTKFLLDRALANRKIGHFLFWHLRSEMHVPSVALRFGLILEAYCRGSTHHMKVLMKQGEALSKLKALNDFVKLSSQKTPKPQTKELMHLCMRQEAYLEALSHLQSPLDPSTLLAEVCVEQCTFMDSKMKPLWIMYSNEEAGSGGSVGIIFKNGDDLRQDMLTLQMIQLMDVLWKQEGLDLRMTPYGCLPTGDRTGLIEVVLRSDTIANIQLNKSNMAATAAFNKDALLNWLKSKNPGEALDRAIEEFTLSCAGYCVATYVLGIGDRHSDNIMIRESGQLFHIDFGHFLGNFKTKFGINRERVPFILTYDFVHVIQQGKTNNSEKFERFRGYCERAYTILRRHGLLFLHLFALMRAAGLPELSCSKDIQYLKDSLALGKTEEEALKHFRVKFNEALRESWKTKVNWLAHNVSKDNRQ
UniProt Q9NRH2, sequence (whole entry, looked up): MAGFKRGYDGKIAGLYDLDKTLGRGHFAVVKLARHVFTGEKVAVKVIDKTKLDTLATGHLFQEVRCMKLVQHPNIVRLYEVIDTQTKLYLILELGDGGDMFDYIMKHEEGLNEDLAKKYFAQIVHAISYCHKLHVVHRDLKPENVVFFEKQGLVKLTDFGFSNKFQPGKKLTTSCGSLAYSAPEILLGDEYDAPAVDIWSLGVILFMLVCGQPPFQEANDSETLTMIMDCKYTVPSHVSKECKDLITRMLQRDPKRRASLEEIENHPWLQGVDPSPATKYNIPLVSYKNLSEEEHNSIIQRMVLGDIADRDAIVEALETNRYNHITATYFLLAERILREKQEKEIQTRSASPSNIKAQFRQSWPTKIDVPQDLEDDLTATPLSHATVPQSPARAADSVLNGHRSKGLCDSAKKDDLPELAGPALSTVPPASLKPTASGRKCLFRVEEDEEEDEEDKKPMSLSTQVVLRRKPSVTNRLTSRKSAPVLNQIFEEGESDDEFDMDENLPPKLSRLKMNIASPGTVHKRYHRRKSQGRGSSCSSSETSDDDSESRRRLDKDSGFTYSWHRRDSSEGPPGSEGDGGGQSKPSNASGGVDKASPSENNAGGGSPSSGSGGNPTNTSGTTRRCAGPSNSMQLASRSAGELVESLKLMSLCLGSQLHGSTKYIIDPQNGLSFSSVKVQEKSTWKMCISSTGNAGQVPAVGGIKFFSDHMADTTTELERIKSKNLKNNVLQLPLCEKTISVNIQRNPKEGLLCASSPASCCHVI
UniProt Q13043, sequence (whole entry, looked up): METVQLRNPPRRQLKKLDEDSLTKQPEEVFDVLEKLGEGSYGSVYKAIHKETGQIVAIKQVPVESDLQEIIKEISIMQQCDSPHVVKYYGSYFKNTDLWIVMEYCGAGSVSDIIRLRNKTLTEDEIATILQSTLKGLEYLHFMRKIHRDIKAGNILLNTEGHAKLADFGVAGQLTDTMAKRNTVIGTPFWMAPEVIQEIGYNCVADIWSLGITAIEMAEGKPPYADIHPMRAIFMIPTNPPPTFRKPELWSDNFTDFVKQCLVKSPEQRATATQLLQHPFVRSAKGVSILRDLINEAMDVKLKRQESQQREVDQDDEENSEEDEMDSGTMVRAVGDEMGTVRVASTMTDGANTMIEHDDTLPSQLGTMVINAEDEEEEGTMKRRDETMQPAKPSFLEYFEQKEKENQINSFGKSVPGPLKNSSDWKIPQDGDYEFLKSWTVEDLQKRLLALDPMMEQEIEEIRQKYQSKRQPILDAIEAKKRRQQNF

Sample 1
Cell line: HH
Concentration: 2 µM
Time: 48 h
Baseline: untreated
SMILES | viability
CCCCCCCCc1ccc(CCC(N)(CO)CO)cc1 | 90.3%
O=C(c1ccc(Nc2nccc(-c3cc4ccccc4s3)n2)cc1)N1CCC(N2CCCC2)CC1 | 52.2%
O=C1NC(=O)[C@@H](c2cn3c4c(cccc24)CCC3)[C@@H]1c1c[nH]c2ccccc12 | 14.7%
Cc1ccc(Nc2nccc(N(C)c3ccc4c(C)n(C)nc4c3)n2)cc1S(N)(=O)=O | 97.7%
COc1cc(N2CCC(N)CC2)ccc1Nc1ncc(Cl)c(-c2c[nH]c3ccccc23)n1 | 80.1%
CN1CCN(c2ccc(C(=O)Nc3n[nH]c4ccc(Cc5cc(F)cc(F)c5)cc34)c(NC3CCOCC3)c2)CC1 | 67.4%
Cc1ccc(F)c(NC(=O)Nc2ccc(-c3cccc4[nH]nc(N)c34)cc2)c1 | 93.2%
CC[C@@H]1C(=O)N(C)c2cnc(Nc3ccc(C(=O)N[C@H]4CC[C@H](N5CCN(CC6CC6)CC5)CC4)cc3OC)nc2N1C(C)C | 27.6%

Sample 2
Cell line: mouse MPNST tumor cells
Method: high-content nuclear imaging
Item: cell number
Concentration: 10 µM
Time: 12 h
Setting: mean of 2 replicates
Baseline: plate mean
Direction: higher = more cells
SMILES | nuclei count
CCCc1nn(C)c2c(=O)[nH]c(-c3cc(S(=O)(=O)N4CCN(C)CC4)ccc3OCC)nc12 | 2.03 z-score and 0.947 z-score and 0.564 z-score
Cc1cccc(C)c1OCC(=O)N[C@@H](Cc1ccccc1)[C@@H](O)C[C@H](Cc1ccccc1)NC(=O)[C@H](C(C)C)N1CCCNC1=O | 1.3 z-score
CC/C(=C(/CC)c1ccc(O)cc1)c1ccc(O)cc1 | 0.823 z-score
CNCCCC12CCC(c3ccccc31)c1ccccc12 | -4.59 z-score and -3.84 z-score
CCN1CCCC1CNC(=O)c1cc(S(N)(=O)=O)ccc1OC (stereo not drawn) | -1.17 z-score
Cc1c(NC(=O)N2CCOCC2)ccc2c1c1ccccc1n2C(C)C | 1.87 z-score
C[C@]12CC[C@@H]3c4ccc(O)cc4CC[C@H]3[C@@H]1C[C@@H](O)[C@@H]2O | -0.155 z-score

Sample 3
Target: Ribosomal protein S6 kinase alpha-2 (RPS6KA2, Homo sapiens, UniProt Q15349)
UniProt Q15349, sequence (whole entry, looked up): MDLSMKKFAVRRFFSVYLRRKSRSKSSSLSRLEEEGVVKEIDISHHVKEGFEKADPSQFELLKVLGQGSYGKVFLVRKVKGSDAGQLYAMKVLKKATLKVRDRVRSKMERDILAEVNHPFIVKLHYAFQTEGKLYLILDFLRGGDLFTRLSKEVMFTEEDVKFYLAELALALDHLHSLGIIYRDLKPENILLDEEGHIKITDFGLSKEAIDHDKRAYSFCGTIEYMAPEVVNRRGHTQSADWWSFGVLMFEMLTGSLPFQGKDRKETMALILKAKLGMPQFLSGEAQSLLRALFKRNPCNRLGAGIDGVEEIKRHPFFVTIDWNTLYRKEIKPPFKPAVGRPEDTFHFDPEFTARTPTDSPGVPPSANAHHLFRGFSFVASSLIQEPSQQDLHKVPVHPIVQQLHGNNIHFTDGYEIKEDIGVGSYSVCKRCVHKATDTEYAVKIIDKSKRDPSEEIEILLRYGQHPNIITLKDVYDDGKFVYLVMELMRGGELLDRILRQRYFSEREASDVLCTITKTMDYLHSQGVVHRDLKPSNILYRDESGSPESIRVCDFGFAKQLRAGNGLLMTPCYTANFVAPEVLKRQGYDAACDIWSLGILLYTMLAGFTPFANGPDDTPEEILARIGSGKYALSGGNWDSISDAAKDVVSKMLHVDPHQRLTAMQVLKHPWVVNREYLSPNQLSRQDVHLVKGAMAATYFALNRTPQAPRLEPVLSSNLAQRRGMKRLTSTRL
Effect on: enzyme activity
Action: inhibitor
Concentration: 0.5 µM
Baseline: control
Structure (SMILES) | remaining activity [%]
COc1cc2c(cc1OC)-c1[nH]nc(Nc3cccc(F)c3)c1C2 | 91.4
c1ccc(-c2[nH]ncc2-c2ccnc3ccccc23)nc1 | 96.3
O=c1cc(-c2cccc3c2Sc2ccccc2S3)oc(N2CCOCC2)c1 | 81.4
CN([C@@H](Cc1ccc(OS(=O)(=O)c2cccc3cnccc23)cc1)C(=O)N1CCN(c2ccccc2)CC1)S(=O)(=O)c1cccc2cnccc12 | 102
Nc1cccc(-c2cc3c(Oc4cccc(O)c4)ncnc3[nH]2)c1 | 91.5
C[C@@H]1CCN(C(=O)CC#N)C[C@@H]1N(C)c1ncnc2[nH]ccc12 | 89.7
O=C1Nc2ccc(Cl)cc2C1=Cc1cc(Cl)c(O)c(Cl)c1 | 71.9
Cc1cn(-c2cc(NC(=O)c3ccc(C)c(Nc4nccc(-c5cccnc5)n4)c3)cc(C(F)(F)F)c2)cn1 | 97.1
Cc1nc2cc3nc(-c4cccs4)cnc3cc2n1C | 95
COc1cc2ncnc(Nc3cccc(Cl)c3)c2cc1OC | 85.5
Cc1cc2ncc(-c3ccccc3)nc2cc1C | 92.5
CCN(CC)CCNC(=O)c1c(C)[nH]c(/C=C2\C(=O)Nc3ccc(F)cc32)c1C | 17.3
CCN(CC)C(=O)c1ccc(Nc2nc(OCC3CCCCC3)c3[nH]cnc3n2)cc1 | 30.9
N#Cc1c(NC(=O)c2cccc3ccccc23)sc2c1CCCC2 | 95.3
Ic1cccc(CSc2nnc(-c3ccncc3)o2)c1 | 101

Sample 4
Compound: COc1cc(-c2cn(C3CCc4ccccc4N(CC(F)(F)F)C3=O)nn2)ccc1-n1ccc(C)n1 (stereo not drawn)
Effect on: cell-free assay
Method: competition with immobilised ligand
Concentration: 1 µM
target | remaining binding [%]
PRKCD (Homo sapiens, UniProt Q05655) | 98
Tyrosine-protein kinase ABL1, phosphorylated (ABL1, Homo sapiens, UniProt P00519, M351T) | 64
Tyrosine-protein kinase ABL1, phosphorylated (ABL1, Homo sapiens, UniProt P00519, Q252H) | 71
PIK3CD (Homo sapiens, UniProt O00329) | 100
SNRK (Homo sapiens, UniProt Q9NRH2) | 99
TNK2 (Homo sapiens, UniProt Q07912) | 100
KIT (Homo sapiens, UniProt P10721, V559D/V654A) | 100
MAP3K11 (Homo sapiens, UniProt Q16584) | 100
STK4 (Homo sapiens, UniProt Q13043) | 100

Some of these lines once more (sample 4):
target | remaining binding [%]
MAP3K11 (Homo sapiens, UniProt Q16584) | 100
KIT (Homo sapiens, UniProt P10721, V559D/V654A) | 100
